{"data": "Measured values from different studies", "note": "A part holds a random share of what one study measured. Substitutions count along the parent as printed."}
{"data": "Study 1", "target": "ABI1, truncated, D143A, DHFR fusion (Arabidopsis thaliana)", "technique": "DHFR PCA, deep sequencing", "matrix": "yeast", "notes": "methotrexate growth selection, single substitutions", "added": "(+)-ABA 0.0091 µM", "reference": "wild-type fitted maximum", "direction": "higher = stronger binding", "starting sequence": "PYL1, truncated, DHFR fusion (Arabidopsis thaliana); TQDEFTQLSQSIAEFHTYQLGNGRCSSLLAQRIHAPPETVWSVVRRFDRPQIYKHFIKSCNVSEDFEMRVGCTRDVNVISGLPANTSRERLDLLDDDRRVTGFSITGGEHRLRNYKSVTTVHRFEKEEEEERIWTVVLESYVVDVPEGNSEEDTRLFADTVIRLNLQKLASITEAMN"}
{"Variant": "L164W", "relative binding score [%]": 5.05}
{"Variant": "F47A", "relative binding score [%]": -2.47}
{"Variant": "N177I", "relative binding score [%]": 22.2}
{"Variant": "V43T", "relative binding score [%]": -1.98}
{"Variant": "V161P", "relative binding score [%]": -3.77}
{"Variant": "T120F", "relative binding score [%]": -2.8}
{"Variant": "R132P", "relative binding score [%]": 37.5}
{"Variant": "H110N", "relative binding score [%]": 63.4}
{"Variant": "K126L", "relative binding score [%]": 24.4}
{"Variant": "S11C", "relative binding score [%]": 23.7}
{"Variant": "A84Q", "relative binding score [%]": 24.8}
{"Variant": "R32H", "relative binding score [%]": 7.43}
{"Variant": "L138W", "relative binding score [%]": 0.262}
{"Variant": "L29P", "relative binding score [%]": 0.0545}
{"Variant": "R45A", "relative binding score [%]": 2.12}
{"Variant": "F66V", "relative binding score [%]": 1.31}
{"Variant": "E174V", "relative binding score [%]": -1.75}
{"Variant": "C25L", "relative binding score [%]": 6.86}
{"data": "Study 2", "target": "Interferon regulatory factor 5, full length, phosphomimetic (IRF5, Homo sapiens, UniProt Q13568-2, residues 1-514, K96S/S451D/S453D/S456D/S462D)", "technique": "protein-binding microarray", "form": "double-stranded DNA, one strand shown", "matrix": "in vitro", "concentration": "250 nM", "notes": "60-bp whole probe", "added": "salmon DNA 0.4 mg/ml", "reference": "random background probes", "direction": "higher = stronger binding", "constant ends, left off below": "GCCTAGCAC … GTCTTGATTCGCTTGACGCTGCTG"}
{"Strand": "TTATGACTGGGGTTTCGGTTAGTGCTA", "log fluorescence [z-score]": 6.79}
{"Strand": "GACGATCTCAATCTCGAGACGTGCTAG", "log fluorescence [z-score]": -0.137}
{"Strand": "GACGAAGTGGGGACTGGAGACGTGCTA", "log fluorescence [z-score]": -0.811}
{"Strand": "TTAGAACTGGGGACAGGATTAGTGCTA", "log fluorescence [z-score]": -0.532}
{"Strand": "GTATGGATGTGTTTTAAATAGTGCTAG", "log fluorescence [z-score]": 0.233}
{"Strand": "GACGAACTGAGTCTCAAGACGTGCTAG", "log fluorescence [z-score]": -0.211}
{"Strand": "ATAGGTCTCGGTATCGGTTAGTGCTAG", "log fluorescence [z-score]": 4.91}
{"Strand": "GACGGTTTCCTCCTGCTGACGTGCTAG", "log fluorescence [z-score]": 0.32}
{"Strand": "TCAGTTTTCTAAACCATACTGTGCTAG", "log fluorescence [z-score]": 0.947}
{"Strand": "GACGGTTTCGACACTGGGGTCGTGCTA", "log fluorescence [z-score]": 4.77}
{"Strand": "TTAGATATCAGACTGGACTAGTGCTAG", "log fluorescence [z-score]": -0.0582}
{"data": "Study 3", "target": "RNA binding protein fox-1 homolog 2, RRM domain, GST-SBP tag (RBFOX2, Homo sapiens, UniProt O43251-10, residues 100-194)", "technique": "RNA Bind-n-Seq", "form": "RNA", "matrix": "in vitro", "concentration": "365 nM", "notes": "natural RNA segment, single round, ends assumed", "reference": "no-protein control", "direction": "higher = stronger binding", "Residues (chain)": "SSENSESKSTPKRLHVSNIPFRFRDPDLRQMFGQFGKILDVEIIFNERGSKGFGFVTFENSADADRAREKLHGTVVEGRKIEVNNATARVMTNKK"}
{"Strand": "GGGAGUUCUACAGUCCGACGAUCAAGAUCCCAACCUUCCGAUCUCUGCCUACUCUCAGACUUGGCCAGCCCUCUUGCCUGUCAUCCCAACCCUGCUGCUUCUCUGUAAAAGGUUGUUUCUUUACUAGCAGAAAUGGAAUUCUCGGGUGCCAA", "RBNS enrichment (R)": 3.24}
{"Strand": "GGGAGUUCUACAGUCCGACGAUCUGACUGCCAUCUUGCUCCAUGGUGGCUCUUCUGGCCUGGGACCCGGUCCACAGGAAGGGCUAGGAGCUGAAUUAAAGAUGAGAGCAUCCCUCCUGCACACUGGGGCUUCCUGGAAUUCUCGGGUGCCAA", "RBNS enrichment (R)": 1.09}
{"Strand": "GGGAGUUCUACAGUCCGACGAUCAGAUGUGGUCGGGGCCACGCUUCCCACUGGUUCUGCAGUGAGGAGUUGGGGCGGGUGAGCCAAAGCGGCCCCCCAUGGUGUCUACCUGAGGGGCAGGGAACCGCCUGCCUUGGAAUUCUCGGGUGCCAA", "RBNS enrichment (R)": 0.195}
{"Strand": "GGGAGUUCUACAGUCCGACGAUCAAGAAAGCUUCUUCCAACUUCUGUUUCUGGUGGGAGCGGGGGGACUCCCACUUUUUACAAUGUCUAGUCAUUUUCAUAGUGCCCCACAUUCAAGAACCAGACAACAGGAUUGGAAUUCUCGGGUGCCAA", "RBNS enrichment (R)": 0.564}
{"Strand": "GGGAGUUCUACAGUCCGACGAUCGGACCCGAGACUGAGUUUUGUCCUUGUCCUUUAGCCUUAGCAGUGGGUAUGAGGUGUGCAGGGGGCUGGGUGGCUUUCCUCAGCCCAUUACAAAGAGGGCCCCCCACCCCUGGAAUUCUCGGGUGCCAA", "RBNS enrichment (R)": 0.685}
{"Strand": "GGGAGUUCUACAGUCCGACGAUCCCAGCUGGCCUGCUGUGAAGCCAGUAGCUAUUUUAAAAGUGCUGGCUGCAGGAUUAAGCCAACCCUUUACAACUGGCCCAGACCGUAAUGGCCAUUUCUUCUUAAAAAAAUGGAAUUCUCGGGUGCCAA", "RBNS enrichment (R)": 0.445}
{"Strand": "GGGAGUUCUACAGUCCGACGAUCCCUGUAGAGACCUGAAAAUCCCACUUGUUUACCCUAGAAUUCAGUGGCAUUUACUGCUUCUUGAUCUCUAACCACUUGAGUUGGGUCAAGAGGAUUCUGGGCGUGGCAAGUGGAAUUCUCGGGUGCCAA", "RBNS enrichment (R)": 0.214}
{"Strand": "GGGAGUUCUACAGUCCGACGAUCAUUCUGAUAUAUUUAAUUUAUAAAUUUCGGACUGAUAUAAUAGAGUUUUGGAAAACUAUAAGAAAUGCUUUGUUAAUGUGUGUAUUCCUAUGUAAAACACAUGGCUUUUCUGGAAUUCUCGGGUGCCAA", "RBNS enrichment (R)": 0.82}
{"data": "Study 4", "target": "RING finger protein unkempt homolog, zinc fingers 1-6, SBP tag (UNK, Homo sapiens, UniProt Q9C0B0, residues 30-357)", "technique": "RNA Bind-n-Seq", "form": "RNA", "matrix": "in vitro", "concentration": "100 nM", "notes": "RNA with constant flanks, vertebrate orthologous sites, ends assumed", "reference": "input RNA pool", "direction": "higher = stronger binding", "chain of UniProt Q9C0B0 (30-357, looked up)": "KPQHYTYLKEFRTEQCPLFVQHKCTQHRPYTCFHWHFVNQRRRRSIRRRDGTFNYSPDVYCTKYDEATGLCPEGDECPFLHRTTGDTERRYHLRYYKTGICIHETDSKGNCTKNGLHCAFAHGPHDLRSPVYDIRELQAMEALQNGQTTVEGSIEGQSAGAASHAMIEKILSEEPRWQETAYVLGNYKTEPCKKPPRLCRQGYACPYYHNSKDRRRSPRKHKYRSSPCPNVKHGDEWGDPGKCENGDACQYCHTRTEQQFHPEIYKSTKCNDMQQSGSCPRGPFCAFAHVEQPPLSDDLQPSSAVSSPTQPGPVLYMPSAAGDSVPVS"}
{"Strand": "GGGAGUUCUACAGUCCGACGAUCCAUGUAGUUUGUUUUUAAUUUCAAGCAAAUCUUAUUGUACUUGAAUGUGCCCUGUUUUGUUAGCACACCUAGACUUGCUGUAACUGUACUCAUGUCCCAGUAUGUACGUUCUUUCUAUGACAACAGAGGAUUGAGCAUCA", "bound/input enrichment [ratio]": 1.25}
{"Strand": "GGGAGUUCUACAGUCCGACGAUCCCAUAUUUAGAGAACAUUUGAGAAGGUUCUCUAGAUUUGCUGGAUUUUAUUAGGUUUGAGCUUUAUUCUUUAGAGAUUUGAUAACAUUACUCCCAAUUUCCAGGUUUUUUUUAUUGAGCACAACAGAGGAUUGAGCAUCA", "bound/input enrichment [ratio]": 0.616}
{"Strand": "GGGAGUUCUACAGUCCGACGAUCUCAGUCCCCUGGGCCGGGACAGAUUUUUUUUAACGUCUUGAAACUUAAACUCUGUGCUUGUAGGAUACUGUAACCUUUUUGUCUUUUUUUUUUUUUUUUUUUUAAACCUCCACCUCCAGUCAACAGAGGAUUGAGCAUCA", "bound/input enrichment [ratio]": 2.31}
{"Strand": "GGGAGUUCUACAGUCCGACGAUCUGUGCUUUCUUUUUUUUCCUUUGUUUCUUCCUACCUUUAUUUCUUUUUUCUUUUUAUUUGGUAGUUGUUGUUACCACACCAUUUUACGUCUCCUUCACUGAAGGGCUAGAGUUUUAACUUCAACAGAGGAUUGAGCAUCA", "bound/input enrichment [ratio]": 1.68}
{"Strand": "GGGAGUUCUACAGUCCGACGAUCAGCCACCCAAGGAUUCAGGACUGGUUUUACAAAUAUACCAAGUAGAUAUGGAAAUAACAAUAGAAUUGGACAACCAAGACCAUGAUGUACUCUAACUUAUUUUUAUGAAGAAUAUUGACUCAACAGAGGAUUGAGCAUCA", "bound/input enrichment [ratio]": 0.614}
{"Strand": "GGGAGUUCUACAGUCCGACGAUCAGAGCUCACAAACUGAAAGGAAGACUAUUAAAGAGUUUCUAAUAUUAACUAUUAGAAAGCUAGGAAAGAUUAGGACAAUUUUACAAAUGAGCAAUUAAAAAGAAAAGGAUCUGGGAACUACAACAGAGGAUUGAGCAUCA", "bound/input enrichment [ratio]": 0.447}
{"note": "A few entries again (study 1):"}
{"Variant": "R45A", "relative binding score [%]": 2.12}
{"Variant": "H110N", "relative binding score [%]": 63.4}
{"Variant": "V161P", "relative binding score [%]": -3.77}
{"Variant": "R32H", "relative binding score [%]": 7.43}
{"Variant": "L29P", "relative binding score [%]": 0.0545}
{"Variant": "N177I", "relative binding score [%]": 22.2}
